{"data": "Assay results gathered from unrelated publications", "CNR2": "Cannabinoid receptor 2 (CNR2, Homo sapiens, UniProt P34972)", "note": "Lines come from different studies, so protocols differ. Numbers after ± are the reported error.", "UniProt P21554, sequence (whole entry, unmodified, looked up)": "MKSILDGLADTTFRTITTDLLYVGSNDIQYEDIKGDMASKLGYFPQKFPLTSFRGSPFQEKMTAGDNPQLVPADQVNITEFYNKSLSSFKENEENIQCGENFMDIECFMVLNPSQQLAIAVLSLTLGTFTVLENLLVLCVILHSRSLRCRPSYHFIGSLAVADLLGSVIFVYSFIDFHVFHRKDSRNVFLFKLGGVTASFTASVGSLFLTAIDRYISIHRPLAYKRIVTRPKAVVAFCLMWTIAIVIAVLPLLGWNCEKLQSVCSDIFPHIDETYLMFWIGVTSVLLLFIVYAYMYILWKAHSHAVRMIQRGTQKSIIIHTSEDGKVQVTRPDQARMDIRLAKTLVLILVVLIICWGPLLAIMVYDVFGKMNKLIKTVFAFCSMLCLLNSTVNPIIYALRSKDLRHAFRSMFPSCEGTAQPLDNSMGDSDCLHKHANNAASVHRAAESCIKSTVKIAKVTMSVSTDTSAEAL", "UniProt P34972, sequence (whole entry, looked up)": "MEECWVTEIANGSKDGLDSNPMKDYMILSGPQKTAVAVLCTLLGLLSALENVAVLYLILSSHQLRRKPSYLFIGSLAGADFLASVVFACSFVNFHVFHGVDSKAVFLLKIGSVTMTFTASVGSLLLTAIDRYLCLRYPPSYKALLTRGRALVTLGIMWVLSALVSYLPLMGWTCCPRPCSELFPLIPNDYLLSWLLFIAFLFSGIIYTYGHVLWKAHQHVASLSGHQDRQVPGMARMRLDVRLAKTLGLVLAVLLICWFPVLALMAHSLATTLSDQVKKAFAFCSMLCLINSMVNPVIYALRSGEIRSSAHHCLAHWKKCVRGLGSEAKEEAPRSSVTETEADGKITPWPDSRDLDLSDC", "UniProt P35968, sequence (whole entry, looked up)": "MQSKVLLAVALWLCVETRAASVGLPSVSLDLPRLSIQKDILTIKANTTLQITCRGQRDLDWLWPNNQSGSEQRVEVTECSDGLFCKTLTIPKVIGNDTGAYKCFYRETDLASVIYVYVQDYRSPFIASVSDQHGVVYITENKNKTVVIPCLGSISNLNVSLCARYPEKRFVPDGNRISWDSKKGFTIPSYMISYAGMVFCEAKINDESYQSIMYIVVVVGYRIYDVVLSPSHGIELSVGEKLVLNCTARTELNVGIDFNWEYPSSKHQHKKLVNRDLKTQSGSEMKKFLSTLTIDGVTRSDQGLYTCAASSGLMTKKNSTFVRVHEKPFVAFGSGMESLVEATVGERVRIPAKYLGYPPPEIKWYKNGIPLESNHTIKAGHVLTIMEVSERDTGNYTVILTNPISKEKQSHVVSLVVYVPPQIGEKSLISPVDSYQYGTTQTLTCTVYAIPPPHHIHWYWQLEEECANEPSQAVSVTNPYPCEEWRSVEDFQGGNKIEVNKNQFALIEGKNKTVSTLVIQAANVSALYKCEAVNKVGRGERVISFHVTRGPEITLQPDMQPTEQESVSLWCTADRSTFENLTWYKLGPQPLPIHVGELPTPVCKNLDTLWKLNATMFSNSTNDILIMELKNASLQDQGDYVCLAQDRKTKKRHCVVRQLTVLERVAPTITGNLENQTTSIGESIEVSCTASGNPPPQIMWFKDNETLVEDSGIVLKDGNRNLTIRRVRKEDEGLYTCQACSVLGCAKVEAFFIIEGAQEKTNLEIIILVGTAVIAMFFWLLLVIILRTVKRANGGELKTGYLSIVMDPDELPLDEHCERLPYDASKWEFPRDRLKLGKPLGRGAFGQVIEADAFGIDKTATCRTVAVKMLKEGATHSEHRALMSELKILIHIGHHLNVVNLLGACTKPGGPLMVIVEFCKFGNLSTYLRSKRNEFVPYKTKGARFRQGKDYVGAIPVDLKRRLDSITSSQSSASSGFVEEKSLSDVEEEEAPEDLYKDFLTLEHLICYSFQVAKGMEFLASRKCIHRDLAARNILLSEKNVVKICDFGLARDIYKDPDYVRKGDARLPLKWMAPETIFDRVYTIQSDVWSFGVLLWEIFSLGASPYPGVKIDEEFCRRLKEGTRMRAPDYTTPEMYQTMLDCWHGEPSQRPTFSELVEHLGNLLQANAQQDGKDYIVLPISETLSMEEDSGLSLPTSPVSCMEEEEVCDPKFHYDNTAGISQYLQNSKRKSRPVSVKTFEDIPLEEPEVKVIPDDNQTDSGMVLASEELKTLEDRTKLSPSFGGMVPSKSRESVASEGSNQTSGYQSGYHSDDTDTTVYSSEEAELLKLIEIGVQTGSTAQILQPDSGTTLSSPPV", "UniProt P54855, sequence (whole entry, looked up)": "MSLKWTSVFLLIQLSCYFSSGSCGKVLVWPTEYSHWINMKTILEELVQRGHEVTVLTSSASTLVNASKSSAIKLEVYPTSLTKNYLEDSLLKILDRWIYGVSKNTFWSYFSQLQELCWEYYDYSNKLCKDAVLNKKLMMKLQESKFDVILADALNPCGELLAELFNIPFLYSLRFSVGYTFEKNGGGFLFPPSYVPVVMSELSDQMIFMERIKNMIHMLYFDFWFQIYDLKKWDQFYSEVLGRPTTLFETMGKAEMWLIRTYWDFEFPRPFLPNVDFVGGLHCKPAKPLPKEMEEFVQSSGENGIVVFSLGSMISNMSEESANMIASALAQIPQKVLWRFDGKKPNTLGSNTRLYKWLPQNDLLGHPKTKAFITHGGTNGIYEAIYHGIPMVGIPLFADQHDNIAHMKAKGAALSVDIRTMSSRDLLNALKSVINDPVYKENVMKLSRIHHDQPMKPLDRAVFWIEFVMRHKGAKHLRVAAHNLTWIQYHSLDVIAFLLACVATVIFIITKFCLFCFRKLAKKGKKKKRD", "UniProt P14867, sequence (whole entry, looked up)": "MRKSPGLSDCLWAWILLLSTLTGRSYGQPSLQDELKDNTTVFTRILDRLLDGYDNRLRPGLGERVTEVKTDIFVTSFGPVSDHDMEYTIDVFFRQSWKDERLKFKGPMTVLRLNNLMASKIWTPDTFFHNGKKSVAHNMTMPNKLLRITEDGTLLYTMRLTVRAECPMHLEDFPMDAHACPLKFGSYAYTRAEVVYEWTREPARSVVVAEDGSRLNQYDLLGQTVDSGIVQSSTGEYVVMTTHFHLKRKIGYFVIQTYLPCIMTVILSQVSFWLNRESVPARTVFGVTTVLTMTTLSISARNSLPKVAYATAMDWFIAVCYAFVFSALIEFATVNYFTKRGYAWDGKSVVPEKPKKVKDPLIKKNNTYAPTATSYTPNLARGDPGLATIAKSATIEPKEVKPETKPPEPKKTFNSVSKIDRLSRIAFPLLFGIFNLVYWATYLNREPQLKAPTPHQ", "UniProt P18507, sequence (whole entry, looked up)": "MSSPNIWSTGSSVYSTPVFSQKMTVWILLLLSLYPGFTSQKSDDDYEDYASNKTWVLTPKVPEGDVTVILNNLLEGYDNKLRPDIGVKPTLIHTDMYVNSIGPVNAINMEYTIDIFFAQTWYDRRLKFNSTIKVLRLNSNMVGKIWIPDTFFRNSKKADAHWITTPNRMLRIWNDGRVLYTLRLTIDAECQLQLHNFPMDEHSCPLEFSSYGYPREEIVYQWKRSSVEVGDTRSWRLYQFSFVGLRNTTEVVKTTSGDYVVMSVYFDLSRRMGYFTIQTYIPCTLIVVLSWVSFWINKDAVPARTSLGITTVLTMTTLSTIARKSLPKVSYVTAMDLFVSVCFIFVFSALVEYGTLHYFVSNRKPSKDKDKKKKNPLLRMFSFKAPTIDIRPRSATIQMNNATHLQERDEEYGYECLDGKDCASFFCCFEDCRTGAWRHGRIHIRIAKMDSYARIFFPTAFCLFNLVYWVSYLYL", "UniProt A0A109QYD3, sequence (whole entry, looked up)": "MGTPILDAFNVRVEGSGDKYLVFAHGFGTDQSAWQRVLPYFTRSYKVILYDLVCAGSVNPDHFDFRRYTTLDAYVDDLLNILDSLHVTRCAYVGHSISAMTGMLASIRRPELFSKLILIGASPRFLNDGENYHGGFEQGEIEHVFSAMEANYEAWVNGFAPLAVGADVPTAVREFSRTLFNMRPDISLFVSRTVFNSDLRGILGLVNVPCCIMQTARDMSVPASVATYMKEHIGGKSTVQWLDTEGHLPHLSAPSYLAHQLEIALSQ", "UniProt P47870, sequence (whole entry, looked up)": "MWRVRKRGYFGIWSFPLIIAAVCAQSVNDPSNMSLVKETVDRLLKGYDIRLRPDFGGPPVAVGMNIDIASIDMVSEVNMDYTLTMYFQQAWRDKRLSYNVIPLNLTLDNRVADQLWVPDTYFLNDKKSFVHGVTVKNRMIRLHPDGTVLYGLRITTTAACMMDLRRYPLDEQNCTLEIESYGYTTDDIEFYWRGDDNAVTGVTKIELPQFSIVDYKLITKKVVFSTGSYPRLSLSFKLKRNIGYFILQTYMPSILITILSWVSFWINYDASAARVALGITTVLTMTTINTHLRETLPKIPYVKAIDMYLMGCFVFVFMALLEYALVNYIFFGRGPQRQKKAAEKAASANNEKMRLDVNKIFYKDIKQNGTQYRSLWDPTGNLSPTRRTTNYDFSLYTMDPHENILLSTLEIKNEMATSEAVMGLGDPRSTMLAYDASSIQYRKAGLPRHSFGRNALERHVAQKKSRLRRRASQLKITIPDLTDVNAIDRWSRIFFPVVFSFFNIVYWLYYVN"}
{"Structure (SMILES)": "C[C@H](NC(=O)[C@H](CCC(N)=O)NC(=O)[C@H](CCCCN)NC(=O)[C@H](C)NC(=O)[C@@H]1CCCN1C(=O)[C@H](C)NC(=O)[C@H](CCCCN)NC(=O)[C@H](CCC(N)=O)NC(=O)[C@H](C)NC(=O)[C@H](CCCCN)NC(=O)[C@H](CCC(N)=O)NC(=O)[C@@H]1CCCN1C(=O)[C@H](CCC(N)=O)NC(=O)[C@H](CCCCN)NC(=O)[C@H](C)NC(=O)[C@H](CCC(N)=O)NC(=O)[C@H](CCCCN)NC(=O)[C@H](C)NC(=O)[C@@H]1CCCN1C(=O)[C@H](C)NC(=O)[C@H](CCCCN)NC(=O)[C@H](CCC(N)=O)NC(=O)[C@H](C)NC(=O)[C@H](CCCCN)NC(=O)[C@H](CO)NC(=O)[C@H](Cc1ccc(O)cc1)NC(=O)CNC(=O)CNC(=O)CN)C(=O)N[C@@H](CCCCN)C(=O)N[C@@H](CCC(N)=O)C(=O)O", "assay": "binding, SPR two-state model", "test system": "rVλ6Wil fibrils", "conditions": "300 nM", "measurement": "ka2", "value": "0.0122 s⁻¹"}
{"Structure (SMILES)": "CCCCCn1cc(C(=O)c2cccc3c2CC(C)(C)C3)c2ccccc21", "tested on": "CNR2", "assay": "β-arrestin recruitment, agonist, BRET", "test system": "HEK-293T", "measurement": "Emax", "value": "91.8%"}
{"Structure (SMILES)": "CC1=C(C)[C@@H](Oc2c(F)cc3c(C)cc(=O)oc3c2F)OC1=O", "tested on": "RMS3 (Lathyrus oleraceus, UniProt A0A109QYD3)", "assay": "enzyme activity, substrate, pre-steady-state kinetics", "measurement": "kcat", "value": "0.00227 ± 0.00045 s⁻¹"}
{"Structure (SMILES)": "CCCCCn1cc(C(=O)c2ccc3c(c2)CC(C)(C)C3)c2ccccc21", "tested on": "CNR2", "assay": "β-arrestin 2 recruitment, agonist, BRET", "scale": "baseline: CB2 over CB1", "measurement": "difference in Emax", "value": "~30%"}
{"Structure (SMILES)": "CC(=O)NC(Cc1ccc(Br)c(Cl)c1)C(=O)N[C@@H](C)C(=O)N1CCC[C@H]1C(=O)N1CCC[C@H]1C(=O)N[C@@H](CCC(=O)O)C(=O)N[C@@H](Cc1c[nH]cn1)C(=O)N[C@@H](CO)C(=O)N[C@H](C(=O)N[C@@H](C)C(N)=O)[C@@H](C)OP(=O)(O)O (stereo partly drawn)", "tested on": "Vascular endothelial growth factor receptor 2 (KDR, Homo sapiens, UniProt P35968)", "conditions": "10 µM", "measurement": "inhibition", "value": "5.74 ± 0.18%"}
{"Structure (SMILES)": "CC(C)C[C@H](NC(=O)[C@H](Cc1ccccc1)NC(=O)CNC(=O)CNC(=O)[C@@H](N)Cc1ccc(OC(C(=O)O)c2ccccc2[N+](=O)[O-])cc1)C(=O)O (stereo partly drawn)", "assay": "K+ current, agonist, photo-uncaging", "test system": "rat locus coeruleus neurons", "measurement": "activation time constant", "value": "349 ± 26 ms"}
{"Structure (SMILES)": "CCCCCc1cc(O)c2c(c1)OC(C)(C)C1CCC(C)=CC21 (single isomer, unassigned; (-))", "tested on": "UDP-glucuronosyltransferase 2B15 (UGT2B15, Homo sapiens, UniProt P54855)", "assay": "oxazepam glucuronidation", "test system": "recombinant microsomes", "conditions": "10 or 100 µM, with: oxazepam", "measurement": "inhibition", "value": "no inhibition"}
{"Structure (SMILES)": "CCCCCn1cc(C(=O)c2cccc3ccccc23)c2ccccc21", "tested on": "Cannabinoid receptor 1 (CNR1, Homo sapiens, UniProt P21554, L359V)", "assay": "Gαi1 engagement, agonist, BRET", "scale": "baseline: reference agonist at wild-type CB1", "measurement": "Emax", "value": "127 ± 3.4%"}
{"Structure (SMILES)": "CC(C)[C@H](N)C(=O)N[C@@H](Cc1ccc(O)cc1)C(=O)N[C@@H](CCCCN)C(=O)N[C@H](C(=O)N[C@@H](CCCCN)C(=O)N[C@H](C(=O)N[C@@H](CCCCN)C(=O)N[C@H](C(=O)N[C@@H](CCCCN)C(=O)N[C@H](C(=O)N[C@@H](CCCCN)C(=O)N[C@H](C(=O)N[C@@H](CCCCN)C(=O)N[C@H](C(=O)N[C@@H](CCCCN)C(=O)N[C@H](C(=O)N[C@@H](CCCCN)C(=O)N[C@H](C(=O)O)[C@@H](C)O)C(C)C)[C@@H](C)O)C(C)C)[C@@H](C)O)C(C)C)[C@@H](C)O)C(C)C", "assay": "binding, SPR Langmuir fit", "test system": "rVλ6Wil fibrils", "conditions": "300 nM, pH 7.4", "measurement": "association rate constant", "value": "340000 M⁻¹ s⁻¹"}
{"Structure (SMILES)": "C=C(C)C1C2OC(=O)C1C1(O)CC3OC34C(=O)OC2C14C (stereo not drawn)", "tested on": "GABA-A receptor; alpha-1/beta-2/gamma-2 (Homo sapiens, UniProt P14867+P18507+P47870)", "assay": "GABA-induced current, antagonist, two-electrode voltage clamp", "test system": "Xenopus oocytes", "conditions": "with: GABA at EC50", "measurement": "Hill coefficient", "value": "0.8 ± 0.11"}
{"Structure (SMILES)": "C[C@H](NC(=O)[C@H](CCC(N)=O)NC(=O)[C@H](C)NC(=O)[C@H](CCCCN)NC(=O)[C@H](CCC(N)=O)NC(=O)[C@H](C)NC(=O)[C@H](CCCCN)NC(=O)[C@H](CCC(N)=O)NC(=O)[C@H](C)NC(=O)[C@H](CCC(N)=O)NC(=O)[C@H](CCCCN)NC(=O)[C@H](C)NC(=O)[C@H](CCC(N)=O)NC(=O)[C@H](CCCCN)NC(=O)[C@H](C)NC(=O)[C@H](CCC(N)=O)NC(=O)[C@H](C)NC(=O)[C@H](CCCCN)NC(=O)[C@H](CCC(N)=O)NC(=O)[C@H](C)NC(=O)[C@H](CCCCN)NC(=O)[C@H](CO)NC(=O)[C@H](Cc1ccc(O)cc1)NC(=O)CNC(=O)CNC(=O)CN)C(=O)N[C@@H](CCCCN)C(=O)N[C@@H](CCC(N)=O)C(=O)N[C@@H](C)C(=O)N[C@@H](CCCCN)C(=O)N[C@@H](CCC(N)=O)C(=O)O", "assay": "binding, SPR Langmuir fit", "test system": "rVλ6Wil fibrils", "conditions": "300 nM, pH 7.4", "measurement": "association rate constant", "value": "120000 M⁻¹ s⁻¹"}
{"Structure (SMILES)": "CCCCCn1cc(C(=O)c2ccc3ccccc3c2)c2ccccc21", "tested on": "Cannabinoid receptor 1 (CNR1, Homo sapiens, UniProt P21554)", "assay": "β-arrestin recruitment, agonist, BRET", "test system": "HEK-293T", "measurement": "Emax", "value": "98.4%"}
{"Structure (SMILES)": "CSCC[C@H](NC(=O)[C@H](CCCNC(=N)N)NC(=O)[C@H](CCCNC(=N)N)NC(=O)[C@H](CCCCN)NC(=O)[C@H](C)NC(=O)[C@H](CCCNC(=N)N)NC(=O)CNC(=O)[C@@H](NC(=O)CN1CCN(CC(=O)O)CCN(CC(=O)O)CCN(CC(=O)O)CC1)[C@@H](C)O)C(=O)N[C@@H](CCC(N)=O)C(=O)N[C@@H](Cc1ccc(O)cc1)C(=O)N[C@@H](CC(N)=O)C(=O)N[C@@H](CCCNC(=N)N)C(=O)N[C@@H](CCCNC(=N)N)C(=O)O [gallium-68 labelled]", "tested on": "Staphylococcus aureus", "conditions": "concentration not given, 120 min, 37 °C", "measurement": "bacterial binding", "value": "48%"}
{"Structure (SMILES)": "NCCCC[C@H](NC(=O)CNC(=O)CNC(=O)[C@H](CCCCN)NC(=O)CNC(=O)CNC(=O)CNC(=O)[C@H](CCCCN)NC(=O)CNC(=O)CNC(=O)[C@H](CCCCN)NC(=O)CNC(=O)CNC(=O)CNC(=O)[C@H](CCCCN)NC(=O)CNC(=O)CNC(=O)[C@H](CCCCN)NC(=O)CNC(=O)CNC(=O)CNC(=O)[C@H](CCCCN)NC(=O)CNC(=O)CNC(=O)[C@H](CCCCN)NC(=O)[C@H](CO)NC(=O)[C@H](Cc1ccc(O)cc1)NC(=O)CNC(=O)CNC(=O)CN)C(=O)NCC(=O)O", "assay": "binding, SPR two-state model", "test system": "rVλ6Wil fibrils", "conditions": "300 nM", "measurement": "ka2", "value": "7.9e-06 s⁻¹"}
{"Structure (SMILES)": "CCN(Cc1ccccc1)C(=O)CCc1nc(CN2CCN(C(=O)Cc3ccc(OC)c(OC)c3)CC2)no1", "tested on": "Sodium channel protein type 10 subunit alpha (Scn10a, Rattus norvegicus, UniProt Q62968)", "assay": "whole-cell patch clamp", "test system": "rat DRG neurons", "conditions": "100 nM", "measurement": "V1/2 of activation", "value": "-17.5 ± 1.11 mV"}
{"note": "Excerpt of the above:"}
{"Structure (SMILES)": "CCCCCn1cc(C(=O)c2cccc3c2CC(C)(C)C3)c2ccccc21", "tested on": "CNR2", "assay": "β-arrestin recruitment, agonist, BRET", "test system": "HEK-293T", "measurement": "Emax", "value": "91.8%"}
{"Structure (SMILES)": "CC1=C(C)[C@@H](Oc2c(F)cc3c(C)cc(=O)oc3c2F)OC1=O", "tested on": "RMS3 (Lathyrus oleraceus, UniProt A0A109QYD3)", "assay": "enzyme activity, substrate, pre-steady-state kinetics", "measurement": "kcat", "value": "0.00227 ± 0.00045 s⁻¹"}
